Assay results from different studies.
Each numbered part is a random draw from the data of one study; scales do not carry over between parts.

Set 1
Target: Transcription factor Sp1 (SP1, Homo sapiens, UniProt P08047, residues 1-785, full length assumed)
UniProt P08047, sequence (whole entry, looked up): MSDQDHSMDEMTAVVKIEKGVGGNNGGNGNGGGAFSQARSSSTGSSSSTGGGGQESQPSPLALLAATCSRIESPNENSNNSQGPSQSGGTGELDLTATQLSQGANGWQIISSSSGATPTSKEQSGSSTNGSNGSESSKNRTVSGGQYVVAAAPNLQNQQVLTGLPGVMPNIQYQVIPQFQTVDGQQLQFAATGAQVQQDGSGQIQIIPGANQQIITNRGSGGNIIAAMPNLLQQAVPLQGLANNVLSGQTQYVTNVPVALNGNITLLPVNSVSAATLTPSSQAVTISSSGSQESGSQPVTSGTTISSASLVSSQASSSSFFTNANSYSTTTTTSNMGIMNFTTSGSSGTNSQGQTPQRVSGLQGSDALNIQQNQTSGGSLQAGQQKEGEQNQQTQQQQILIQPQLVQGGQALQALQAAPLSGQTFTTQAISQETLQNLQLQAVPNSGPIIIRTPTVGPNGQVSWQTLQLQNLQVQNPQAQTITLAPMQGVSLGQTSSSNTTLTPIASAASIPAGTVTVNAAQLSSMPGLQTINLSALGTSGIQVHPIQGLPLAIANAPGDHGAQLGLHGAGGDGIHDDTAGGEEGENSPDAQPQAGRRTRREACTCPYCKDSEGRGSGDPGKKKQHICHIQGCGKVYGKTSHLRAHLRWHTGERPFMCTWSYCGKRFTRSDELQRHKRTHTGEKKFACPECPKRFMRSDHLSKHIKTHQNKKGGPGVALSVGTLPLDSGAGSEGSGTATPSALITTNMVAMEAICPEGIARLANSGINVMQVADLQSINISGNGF
Technique: protein-binding microarray
Molecule type: double-stranded DNA, one strand shown
Medium: in vitro
Tested at: not given
Setting: k-mer, scored over probes, only values ≥0.25
Direction: higher = stronger binding
| Strand | E-score |
| --- | --- |
| AAATATGA | 0.268 |
| ACCACCCA | 0.314 |
| CATGGGGA | 0.316 |
| ATTGTATA | 0.294 |

Set 2
Target: Interferon regulatory factor 7, full length, phosphomimetic (IRF7, Homo sapiens, UniProt Q92985, residues 1-503, S471D/S472D/S475D/S476D/S477D/S483D/S484D/S487D)
UniProt Q92985, sequence (whole entry, unmodified, looked up): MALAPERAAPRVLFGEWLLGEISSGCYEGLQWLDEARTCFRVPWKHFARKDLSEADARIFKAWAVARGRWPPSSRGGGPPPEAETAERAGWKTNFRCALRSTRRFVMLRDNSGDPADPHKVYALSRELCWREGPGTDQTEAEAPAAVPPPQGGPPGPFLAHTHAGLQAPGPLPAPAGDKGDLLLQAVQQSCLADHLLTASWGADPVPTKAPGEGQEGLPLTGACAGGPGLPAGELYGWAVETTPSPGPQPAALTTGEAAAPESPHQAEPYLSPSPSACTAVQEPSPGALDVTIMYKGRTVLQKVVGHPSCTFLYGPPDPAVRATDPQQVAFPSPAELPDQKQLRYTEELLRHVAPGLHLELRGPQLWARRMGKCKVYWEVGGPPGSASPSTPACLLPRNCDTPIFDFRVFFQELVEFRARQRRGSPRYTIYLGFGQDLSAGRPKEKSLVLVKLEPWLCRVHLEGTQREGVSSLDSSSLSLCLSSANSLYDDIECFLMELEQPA
Technique: protein-binding microarray
Molecule type: double-stranded DNA, one strand shown
Medium: in vitro
Tested at: 2200 nM top
Setting: 60-bp whole probe
With: salmon DNA 0.4 mg/ml
Reference: random background probes
Direction: higher = stronger binding
Shared flanks, not repeated: GCCTAGCAC … GTCTTGATTCGCTTGACGCTGCTG
| Strand | fitted relative affinity [z-score] |
| --- | --- |
| TCACCTCTGGGCTGTTTGACTGTGCTA | 0.177 |
| ACAGCTCACGCTTTGGAAAGGTGCTAG | 0.45 |
| TTAGGGCTCGGACTGGGTTAGTGCTAG | -1.14 |
| TTAGGTCTCCTTATCCCTTAGTGCTAG | 1.16 |
| GACGATTTCAGCTTCGAGACGTGCTAG | 0.793 |
| GACCGACTGCTTATCCTGACGTGCTAG | 0.664 |
| GGACCGCGACCTGCCAAGTCGTGCTAG | -0.78 |

Set 3
Target: Centromere-binding protein 1, full length, His-tagged (CBF1, Saccharomyces cerevisiae, UniProt P17106, residues 1-351)
UniProt P17106, sequence (whole entry, looked up): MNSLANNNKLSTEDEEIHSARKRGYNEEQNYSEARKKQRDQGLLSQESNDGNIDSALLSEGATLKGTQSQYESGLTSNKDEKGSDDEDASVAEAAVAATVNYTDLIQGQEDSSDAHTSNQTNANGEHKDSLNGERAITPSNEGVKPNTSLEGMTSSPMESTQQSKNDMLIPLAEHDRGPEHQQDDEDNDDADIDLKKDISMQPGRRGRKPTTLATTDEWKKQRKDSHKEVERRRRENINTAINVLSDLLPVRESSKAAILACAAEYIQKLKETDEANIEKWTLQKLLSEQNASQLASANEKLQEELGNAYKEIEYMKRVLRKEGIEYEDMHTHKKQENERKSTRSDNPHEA
Technique: competition protein-binding microarray
Molecule type: double-stranded DNA, one strand shown
Medium: in vitro
Tested at: 2 µM
Setting: whole 60-bp probe, lowest competitor level
With: Pho4 competitor, 0.05 µM
Direction: higher = stronger binding
| Strand | fluorescence intensity [a.u.] |
| --- | --- |
| GTCTTGTCTCATTGGAGAGTGGGTGTCCCCACTTCAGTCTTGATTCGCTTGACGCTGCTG | 100 |
| AAATTACTAAGTTGGCTCGTGGGTGACGCCGTATGAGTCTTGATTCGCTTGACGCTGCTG | 76.8 |
| CGACGGAACCCAGGACACGTAATGAGGAAGTTTCATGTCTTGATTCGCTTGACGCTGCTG | 83.2 |
| AAATTACTAAGTTGGTTCGTGGGTGACGCCGTATGAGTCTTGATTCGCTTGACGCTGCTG | 65 |
| CAAGATTGCCATTTGCACGGGTAGCGCAAGTGAGAAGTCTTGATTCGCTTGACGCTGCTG | 81.4 |
| CGTCCTAGTGATTTTCACGTGTATTCCATGAGGAAGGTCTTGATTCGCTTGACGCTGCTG | 993 |

Further values, each from its own experiment
| Molecule | target | test | system | setting | how to read | quantity | result |
| --- | --- | --- | --- | --- | --- | --- | --- |
| PhoQ, residues 284 288 289 292 302 303 SNGLAW | PhoP, residues 12 14 15 18 19 TPWLV (Escherichia coli, UniProt P23836) | Sort-seq, refers to: YFP reporter | E. coli | PhoQ-PhoP variant library, with: 10 µM Mg2+ | reference: high Mg2+ state, higher = stronger signaling | fold induction | 12.8 |

A few entries again (set 1):
| Strand | E-score |
| --- | --- |
| ACCACCCA | 0.314 |
